Measurements gathered from unrelated publications.
Numbered parts are unrelated; each lists some results of a single study. Changes are numbered by the printed parent chain.

Series 1
Target: CCNE1, cyclin fold, Cln2 fusion (human)
Technique: yeast growth competition, sequencing
Medium: yeast
Setting: weak parent motif
Relative to: not given
Reading: higher = stronger binding
Parent: LLGL2 docking peptide (human); KSLKKSLRQSFRR
Change	normalised enrichment score
R12A	0.528
K4A	0.948
Q9A	1.02
F11A	-0.129
R8A	0.825
S10A	0.258

Series 2
Target: Sal-like protein 4, full length isoform A (SALL4, Homo sapiens, UniProt Q9UJQ4, residues 1-1053)
Sequence of UniProt Q9UJQ4 (whole entry, looked up): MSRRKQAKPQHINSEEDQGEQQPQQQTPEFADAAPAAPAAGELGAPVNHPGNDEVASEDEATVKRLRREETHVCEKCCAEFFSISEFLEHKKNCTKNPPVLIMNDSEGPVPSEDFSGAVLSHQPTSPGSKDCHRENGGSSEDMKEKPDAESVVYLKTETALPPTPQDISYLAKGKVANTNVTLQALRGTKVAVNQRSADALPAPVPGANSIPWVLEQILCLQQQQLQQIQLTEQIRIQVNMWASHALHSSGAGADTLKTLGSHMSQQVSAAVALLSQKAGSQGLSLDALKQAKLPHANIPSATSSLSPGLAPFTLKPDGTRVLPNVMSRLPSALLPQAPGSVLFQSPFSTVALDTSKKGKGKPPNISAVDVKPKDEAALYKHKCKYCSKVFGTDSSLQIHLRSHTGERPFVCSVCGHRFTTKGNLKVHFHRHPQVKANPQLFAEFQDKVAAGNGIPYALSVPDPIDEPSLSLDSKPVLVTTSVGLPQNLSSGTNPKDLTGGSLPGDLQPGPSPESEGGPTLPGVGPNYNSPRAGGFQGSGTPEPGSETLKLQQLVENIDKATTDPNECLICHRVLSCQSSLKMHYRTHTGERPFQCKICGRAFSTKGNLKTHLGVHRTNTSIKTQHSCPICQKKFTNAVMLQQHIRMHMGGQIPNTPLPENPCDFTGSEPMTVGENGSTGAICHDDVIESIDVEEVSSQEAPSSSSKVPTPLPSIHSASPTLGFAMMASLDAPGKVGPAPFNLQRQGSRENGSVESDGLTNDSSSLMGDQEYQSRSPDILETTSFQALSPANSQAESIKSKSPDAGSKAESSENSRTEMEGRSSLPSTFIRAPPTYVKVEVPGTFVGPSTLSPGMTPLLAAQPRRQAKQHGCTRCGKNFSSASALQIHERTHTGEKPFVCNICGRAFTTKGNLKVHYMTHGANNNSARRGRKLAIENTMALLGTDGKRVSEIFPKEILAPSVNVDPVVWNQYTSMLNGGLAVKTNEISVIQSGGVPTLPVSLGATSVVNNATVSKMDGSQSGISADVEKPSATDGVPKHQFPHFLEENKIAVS
Technique: universal PBM
Form: double-stranded DNA, one strand shown
Medium: in vitro
Concentration: 600 nM
Setting: 8-mer, flanks averaged, mean of replicates
Reading: higher = stronger binding
Oligonucleotide	E-score
AGGACGTG	-0.0881
ACTTGGAT	0.154
ACGGTTAC	0.0181
GCTAGATA	0.136
GCGGGCAA	-0.28
CGTTGCGC	-0.194
AAAGATCG	0.0142
AGCCGTAA	0.0214
TCCGCAGA	-0.183
CATTTGTC	0.202
ATGCGCGC	-0.0381
AACGGCGC	-0.383
TAGTAAAA	0.317
GCGAAGCC	-0.305
AACTTCTC	0.136
CGGGTTAC	-0.133
CGGGCATC	-0.364
CGTGTAGC	-0.13
GTTTGAGA	0.0826

Series 3
Target: Prothrombin, mature alpha-thrombin (F2, Homo sapiens, UniProt P00734)
Technique: aptamer microarray, sandwich
Form: DNA with 2'F-ANA
Medium: in vitro
Concentration: 200 nM
Setting: whole 15-mer aptamer, many near background
With: Cy3 exosite-II aptamer, 400 nM
Reading: higher = stronger binding
Oligonucleotide: GGTTGGTGTGGTTGG
Modification	mean fluorescence intensity [a.u.]
2'F-ANA at 2 3 4 5 9 10 11 13	75
2'F-ANA at 5 8 11 12 14 15	52.4
2'F-ANA at 1 3 7 9 11 14 15	82.5
2'F-ANA at 1 2 5 6 9 10 11 13	72.1
2'F-ANA at 2 4 5 7 11 15	56.7
2'F-ANA at 3 4 6 8 9 10 11 13	209
2'F-ANA at 4 6 9 12 14 15	91.1
2'F-ANA at 1 2 3 5 9	83.2
2'F-ANA at 1 2 5 8 10 12 13 14	49
2'F-ANA at 1 3 4 5 6 11 13 15	49.2
2'F-ANA at 1 2 3 4 5 7 8 11 13 14	48
2'F-ANA at 2 3 4 5 9 12 14 15	52.5
2'F-ANA at 2 3 4 6 7 8 9 11 13	328
2'F-ANA at 1 2 4 6 7 8 9 14 15	61.7
2'F-ANA at 2 4 6 7 8 11 13 15	179
2'F-ANA at 3 6 7 10 11 12 13 14 15	452
2'F-ANA at 1 2 4 5 6 9 11 12 13 14 15	67.3
2'F-ANA at 3 5 6 7 9 12	231
2'F-ANA at 1 3 6 7 9 11 12 13	296
2'F-ANA at 2 3 4 5 6 8 9 10 12 14 15	51.3
2'F-ANA at 1 3 4 8 11 12	395
2'F-ANA at 5 7 14 15	47.7
2'F-ANA at 1 2 3 4 5 6 8 9 10 12	59.7
2'F-ANA at 4 9 10 12 13 15	89.2
2'F-ANA at 1 2 5 6 7 8 11 15	73.7

Series 4
Target: ABI1, truncated, D143A, DHFR fusion (Arabidopsis thaliana)
Technique: DHFR PCA, deep sequencing
Medium: yeast
Setting: methotrexate growth selection, single substitutions
With: (+)-ABA 710 µM
Relative to: wild-type fitted maximum
Reading: higher = stronger binding
Parent: PYL1, truncated, DHFR fusion (Arabidopsis thaliana); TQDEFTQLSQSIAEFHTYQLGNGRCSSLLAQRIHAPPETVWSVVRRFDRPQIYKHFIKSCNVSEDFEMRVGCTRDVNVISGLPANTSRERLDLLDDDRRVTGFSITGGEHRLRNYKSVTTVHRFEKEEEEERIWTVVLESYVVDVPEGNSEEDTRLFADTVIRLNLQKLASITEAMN
Change	relative binding score
P146W	50.7%
L164S	102%
S9P	92.3%
V100K	51.4%
I162H	37.8%
L169N	8.27%
M68G	98.4%
P37K	68.8%
L156E	96.3%
C72L	94.4%
E67Y	97.8%
V70K	93.8%
H122D	89.8%

Series 5
Target: RNA binding protein fox-1 homolog 2, RRM domain, GST-SBP tag (RBFOX2, Homo sapiens, UniProt O43251-10, residues 100-194)
Technique: RNA Bind-n-Seq
Form: RNA
Medium: in vitro
Concentration: 365 nM
Setting: natural RNA segment, single round, ends assumed
Relative to: no-protein control
Reading: higher = stronger binding
Construct (chain): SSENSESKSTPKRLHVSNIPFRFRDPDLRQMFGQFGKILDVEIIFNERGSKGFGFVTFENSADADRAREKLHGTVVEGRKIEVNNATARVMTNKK
Oligonucleotide	RBNS enrichment (R)
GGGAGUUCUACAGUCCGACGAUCCAUUGCUUACCCCGAGCCGGGGUUCCCUCCUCCCGGCCCGCUGCCGCCACCCACCUCUCCUGCAGGCUGCGACCUGCAGUGGCCCGUCUCAGGCCCUGCUCACUCCCGGGUGGAAUUCUCGGGUGCCAA	0.553
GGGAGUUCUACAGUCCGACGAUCGUCCCGUAUUUCUCCAUCUCCAGUUCUGGACAGUGCAGGUUGCCAAGAAAAGGGACCUAGCUUAGCCAUGGCCCUGGAGAUGAAGUUACUGAGGCUGAGGGUAGAUGGGUUGGAAUUCUCGGGUGCCAA	0.825
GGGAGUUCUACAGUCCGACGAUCGCCCCUCCCAAAGCGCCGGCCGACUCGCUGUCUCGCUGGGGACUCUUUCAGCCCUCGCGCCCGCCCGUUUGGGAGGAGAAGUCUCUAUGCAAUUGGCCCCGGCCCCUCCAUGGAAUUCUCGGGUGCCAA	0.316
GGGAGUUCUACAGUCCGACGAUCGUUGUAGGCCUGGCCUUUGCCCAGGCAAUGGACCUUUGAUGCGAGGAACCUUGCUACUUCCCCACUGGGGCCCCAAAUACCCUUACUCUCUCCUAGCCGCUGCUUUACAAUGGAAUUCUCGGGUGCCAA	0.64
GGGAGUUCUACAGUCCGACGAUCAUAUUUUUCCAGAAAAUUUUUAUACAGUGUCAUUUAAUUGGGGAAAGGAUACUGUCAAAAAAUUAAUGCAUACUUUUGUCACAAUUUACCUUUUUGUGGGUGUGUUUUUGUGGAAUUCUCGGGUGCCAA	1.41
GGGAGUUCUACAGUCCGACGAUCCACCUGCACACACGCCCUGGCACACAUACACACAUGCGUGCAGGCUUGUGCAGACACUCAGGGAUGGAGCUGCUGCUGAAGGGACUUGUAGGGAGAGGCUCGUCAACAAGUGGAAUUCUCGGGUGCCAA	0.682
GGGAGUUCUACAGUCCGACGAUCGCACAAGUUCAGAAGACACAGAGGGUGUCUUCUCACACACCACACUGUGACGAGGAACUGCCAUUGCAGGGUCAAUCACCAGGCACUUGCACAUGUAGAAACCUGUAGACUGGAAUUCUCGGGUGCCAA	0.524
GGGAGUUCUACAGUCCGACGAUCCAGCUGUAAUUCUUCCAGCUCUCUCCAAAAGCACCAGUUCUUAUCUUGGGCCUGCACUAGGCUUUAGAAAUGACAGUUUGUGAGUCUAUGAAUAAUUAUUUUUUAAAAAAUGGAAUUCUCGGGUGCCAA	0.634
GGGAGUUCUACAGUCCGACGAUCUAUAGAUCGUCCCCCUGGAAACUGAGGCAUGAGCUCUUCCUCAGAAGUCUGUGAGGGUGAAUGCUAAAGGCUGGGAAGGGAGUGGGCUAGCCAGCUCAUGGAACGUAGGCUGGAAUUCUCGGGUGCCAA	1.3
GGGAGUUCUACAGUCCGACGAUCAAAGUGUUAGUGAGGGUUAAGCAGGAAUACUAACUGCUCAUUUCUCAGUUCAGUGGAUAUAUGUAUGUAGAGAAAGAGAGGUAAUAUUUUGGGCUCUUAGCUUAGUCUGUUGGAAUUCUCGGGUGCCAA	1.09
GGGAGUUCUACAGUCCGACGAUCACCACCUAUGGGGGCCGGGCAGGAGCCUCUGGGGCCUCCACUCCGACAUCAGGACCUGAGAUGACCGCUGUGUGGCGCUCUCUCCCUGGGCAGGGUGGAUGCCACAGGCCUGGAAUUCUCGGGUGCCAA	0.56
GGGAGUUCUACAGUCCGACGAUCCUGUCUACUGACCAAUCAGUGUGGCAUGAGGCCCACGCCACCCAAACCUUUCACUUUCCAAAGAGCUAGCCGUCCUCCACCCAGUACCAUGUCCUAGCCUGUCUGCAUUUUGGAAUUCUCGGGUGCCAA	1.35

Series 6
Target: Ras GTPase-activating protein-binding protein 1, full length (G3BP1, Homo sapiens, UniProt Q13283)
Sequence of UniProt Q13283 (whole entry, looked up): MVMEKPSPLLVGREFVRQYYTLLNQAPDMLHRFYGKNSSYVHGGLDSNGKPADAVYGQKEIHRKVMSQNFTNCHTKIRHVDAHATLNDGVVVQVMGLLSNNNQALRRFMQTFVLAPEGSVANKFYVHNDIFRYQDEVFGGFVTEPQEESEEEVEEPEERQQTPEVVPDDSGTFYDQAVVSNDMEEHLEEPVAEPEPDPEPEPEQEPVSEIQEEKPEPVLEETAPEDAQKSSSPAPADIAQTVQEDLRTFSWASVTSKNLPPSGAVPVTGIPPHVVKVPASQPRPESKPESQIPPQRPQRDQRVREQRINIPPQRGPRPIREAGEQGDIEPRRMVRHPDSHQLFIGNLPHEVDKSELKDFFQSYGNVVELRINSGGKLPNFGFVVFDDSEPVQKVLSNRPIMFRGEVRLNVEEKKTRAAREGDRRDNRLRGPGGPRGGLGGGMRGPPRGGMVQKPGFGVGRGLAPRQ
Technique: RNA Bind-n-Seq
Form: RNA
Medium: in vitro
Concentration: 200 nM
Setting: whole 134-nt RNA, ends assumed
With: 150 mM LiCl
Relative to: input library
Reading: higher = stronger binding
Each molecule: 7-deaza-guanosine replaces G
Oligonucleotide	log2 enrichment
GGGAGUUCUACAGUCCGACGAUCUCAAGUCCUGUGCUACACAUCGUAUGUACCGAAUCGGAAGGGAAGGGGAAGGGGAAAGUAUUAUGUUACGCCGUUCGGAUCUGCACUUCCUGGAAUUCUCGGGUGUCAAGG	-0.342
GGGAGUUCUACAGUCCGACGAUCUCCUGUGCUACACAUCGUAUGUACCGAAUCGGGGAAAGGGGUUUGGGGUUUUUUUGGGGAAAGUAUUAUGUUACGCCGUUCGGAUCUGCAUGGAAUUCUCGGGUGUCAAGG	-0.113
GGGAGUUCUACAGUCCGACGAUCCAAGUCCUGUGCUACACAUCGUAUGUACCGAAUCGGGUGGGAAAGGGAAAAAGGGAAAGUAUUAUGUUACGCCGUUCGGAUCUGCACUUCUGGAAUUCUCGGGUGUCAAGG	-0.259
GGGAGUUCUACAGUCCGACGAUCCCUCAAGUCCUGUGCUACACAUCGUAUGUACCGAAUCGGUUUGGAGGAAAGGAAAGUAUUAUGUUACGCCGUUCGGAUCUGCACUUCCAGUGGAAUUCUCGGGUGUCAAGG	-0.148
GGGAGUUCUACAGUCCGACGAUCUUCCUCAAGUCCUGUGCUACACAUCGUAUGUACCGAAUCGGCGGCGGGCGGAAAGUAUUAUGUUACGCCGUUCGGAUCUGCACUUCCAGCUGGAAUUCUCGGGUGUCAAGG	0.97
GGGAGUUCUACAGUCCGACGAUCACCAUGCAGGUGGGCAUCUUUGGGAAGUGGGGCAAGCGGGGGAUAGGGAGGGGGGUAACACUUUGGGAACAGGUGGUCCCAGGUCGUUUCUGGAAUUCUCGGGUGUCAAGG	0.309
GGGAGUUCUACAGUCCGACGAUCUCAAGUCCUGUGCUACACAUCGUAUGUACCGAAUCGGGGAAGGGGAAGGGAAGGGAAAGUAUUAUGUUACGCCGUUCGGAUCUGCACUUCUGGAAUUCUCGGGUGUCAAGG	-0.256
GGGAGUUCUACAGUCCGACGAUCCUGUGCUACACAUCGUAUGUACCGAAUCGGGGUUUUUGGGGAAAAAAAGGGGUUUUUGGGGAAAGUAUUAUGUUACGCCGUUCGGAUCUGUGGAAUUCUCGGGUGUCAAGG	-1.19
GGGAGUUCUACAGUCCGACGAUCAGUCCUGUGCUACACAUCGUAUGUACCGAAUCGGUUUUUUUGGUUUUUGGUUUUUGGAAAGUAUUAUGUUACGCCGUUCGGAUCUGCACUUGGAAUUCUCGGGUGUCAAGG	-1.5
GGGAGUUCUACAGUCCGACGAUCUAACUUUAGAGGAGGAUCUGAUGGAUAUGGCAGUGGACGUGGAUUUGGGGAUAGCUAUAAUGGGUAUGGAGGAGGACCUGGAGGUGGCAAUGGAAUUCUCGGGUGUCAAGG	0.0764
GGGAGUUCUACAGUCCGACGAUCAGUCCUGUGCUACACAUCGUAUGUACCGAAUCGGGGUUUUUGGUUUUUGGUUUUUGGGAAAGUAUUAUGUUACGCCGUUCGGAUCUGCACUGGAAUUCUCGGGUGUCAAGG	-0.426

Series 7
Target: Histone acetyltransferase KAT6A, winged helix 1, GST fusion (KAT6A, Homo sapiens, UniProt Q92794, residues 1-85)
Technique: protein binding microarray
Form: double-stranded DNA, one strand shown
Medium: in vitro
Concentration: not given
Setting: 8-mer, flanks averaged, mean of 2 arrays, mostly near background
Relative to: not given
Reading: higher = stronger binding
Residues (chain): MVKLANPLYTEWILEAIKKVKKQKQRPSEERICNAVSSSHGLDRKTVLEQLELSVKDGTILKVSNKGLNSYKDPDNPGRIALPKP
Oligonucleotide	E-score
CAAAGGTG	-0.0807
GTTATGCA	-0.0958
AACTTTGG	-0.275
TGTAGGAA	-0.138
ACCAATGA	-0.191
AATCGAGC	-0.0708
CGATATGC	0.0947
AACGAAAG	-0.0282
ACCTTGCA	-0.131
AAGTGTAA	-0.109
ACTTTGCC	0.0439
CTGCGAAA	-0.052
GACTTCAA	-0.144
CGATACGA	-0.116
CACATTCC	-0.0299
AATTGTGG	-0.235
ATCAGTCG	-0.152
ACTTCCTG	-0.174
ATAGAAAG	-0.116
CAGCGCGC	0.443
CGCTCCGC	0.351
TCCATTCA	-0.321
GAAGGCTC	-0.156
TCTCAGAA	-0.186
CCAATATA	-0.0921

Some of these lines once more (series 2):
Oligonucleotide	E-score
CGTGTAGC	-0.13
AGGACGTG	-0.0881
CGGGCATC	-0.364
TAGTAAAA	0.317
ACTTGGAT	0.154
TCCGCAGA	-0.183
CGTTGCGC	-0.194
GTTTGAGA	0.0826
GCGAAGCC	-0.305
ACGGTTAC	0.0181
ATGCGCGC	-0.0381
